Assay results of several laboratories.
TYK2 JH1: Non-receptor tyrosine-protein kinase TYK2, JH1 (TYK2, Homo sapiens, UniProt P29597)
UniProt P29597, sequence (whole entry, looked up): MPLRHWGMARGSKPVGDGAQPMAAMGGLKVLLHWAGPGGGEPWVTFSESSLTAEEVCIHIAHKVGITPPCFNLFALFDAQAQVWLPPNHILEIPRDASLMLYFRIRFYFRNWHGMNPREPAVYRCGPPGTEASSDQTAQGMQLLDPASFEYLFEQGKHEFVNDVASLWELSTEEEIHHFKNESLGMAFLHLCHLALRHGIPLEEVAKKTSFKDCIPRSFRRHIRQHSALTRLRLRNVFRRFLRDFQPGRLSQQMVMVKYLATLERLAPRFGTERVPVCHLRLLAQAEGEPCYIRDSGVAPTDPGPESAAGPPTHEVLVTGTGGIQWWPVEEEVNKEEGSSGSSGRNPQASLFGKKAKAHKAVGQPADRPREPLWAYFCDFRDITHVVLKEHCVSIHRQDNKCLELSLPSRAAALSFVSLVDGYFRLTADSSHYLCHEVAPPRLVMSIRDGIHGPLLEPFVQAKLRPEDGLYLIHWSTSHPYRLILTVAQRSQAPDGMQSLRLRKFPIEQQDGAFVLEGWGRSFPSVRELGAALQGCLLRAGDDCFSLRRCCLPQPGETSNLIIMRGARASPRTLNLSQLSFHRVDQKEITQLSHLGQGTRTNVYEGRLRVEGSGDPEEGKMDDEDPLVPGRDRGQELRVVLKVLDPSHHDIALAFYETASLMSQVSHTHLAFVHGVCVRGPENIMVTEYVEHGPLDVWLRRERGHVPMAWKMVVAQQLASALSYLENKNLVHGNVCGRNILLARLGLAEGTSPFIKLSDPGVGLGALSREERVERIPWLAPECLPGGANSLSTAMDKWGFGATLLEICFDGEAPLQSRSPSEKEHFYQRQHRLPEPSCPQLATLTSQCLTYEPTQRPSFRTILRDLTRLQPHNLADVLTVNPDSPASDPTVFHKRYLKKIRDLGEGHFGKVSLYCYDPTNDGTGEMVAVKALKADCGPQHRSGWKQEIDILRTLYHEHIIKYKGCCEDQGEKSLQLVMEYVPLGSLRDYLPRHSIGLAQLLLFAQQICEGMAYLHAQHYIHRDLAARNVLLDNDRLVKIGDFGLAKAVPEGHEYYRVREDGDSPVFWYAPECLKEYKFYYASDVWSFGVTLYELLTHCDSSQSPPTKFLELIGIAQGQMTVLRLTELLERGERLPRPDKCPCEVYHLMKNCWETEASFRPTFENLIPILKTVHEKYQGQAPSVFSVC
TYK2: Non-receptor tyrosine-protein kinase TYK2 (TYK2, Homo sapiens, UniProt P29597)

Compound	target	test	setting	scale	measurement	result
O=C(CN1CN(c2ccccc2)C2(CCN(C(=O)c3cnc4[nH]ncc4c3)CC2)C1=O)NCC(F)(F)F	Non-receptor tyrosine-protein kinase TYK2, JH1 domain (TYK2, Homo sapiens, UniProt P29597)	inhibitor	concentration not given		inhibition	< 50%
CN(C)[C@H]1C[C@@]23CC[C@@]4(O2)C(=CC[C@]2(C)[C@@H](c5ccc6ccncc6c5)CC[C@H]24)C=C3[C@@H](O)[C@@H]1O	Non-receptor tyrosine-protein kinase TYK2, JH2 pseudokinase domain (TYK2, Homo sapiens, UniProt P29597)	ATP probe labelling, inhibitor, KiNativ profiling	0.1 µM		inhibition	2.4%
Nc1ccc(/C=C/C(=O)N2CCc3c(oc4c(-c5ccc(F)cc5)cc(-c5ccc(C(=O)N6CCC(F)(F)CC6)cn5)cc34)C2)cn1	TYK2 JH1	binding, competition with immobilised ligand	1 µM		remaining binding	100%
CS(C)(=O)=Nc1ccc(-c2ccc(-c3nc4cc(O[C@@H]5CO[C@H]6[C@@H]5OC[C@H]6O)[nH]c4cc3F)cc2)cc1	TYK2	enzyme activity, inhibitor	10 µM		inhibition	12%
CC(C)[C@H]1NC(=O)C[C@H]2/C=C/CCSSC[C@@H](NC1=O)C(=O)N[C@H](Cc1cccc3ccccc13)C(=O)NCC(=O)O2	TYK2	enzyme activity, inhibitor	10 µM		inhibition	6.4%
CCOC(=O)[C@@H]1Cc2c(cc([N+](=O)[O-])cc2[N+](=O)[O-])[C@H](O)[C@]12C(=O)Nc1ccc(Br)cc12	TYK2	KINOMEscan	100 nM	relative to: DMSO control	remaining binding	72%
O=C(N[C@@H]1c2ccccc2C[C@H]1N1CCCC1)c1ccc(-c2ccnc3[nH]ccc23)nc1	TYK2 JH1	binding, competition with immobilised ligand	3 µM		remaining binding	12%
C[C@H](NCc1ccc(-c2ccc(C(F)(F)F)cc2)cc1)C(N)=O	TYK2	cell-free assay, competition with immobilised ligand	1 µM		inhibition	44%

A few entries again:
Compound	target	test	setting	scale	measurement	result
CS(C)(=O)=Nc1ccc(-c2ccc(-c3nc4cc(O[C@@H]5CO[C@H]6[C@@H]5OC[C@H]6O)[nH]c4cc3F)cc2)cc1	TYK2	enzyme activity, inhibitor	10 µM		inhibition	12%
